# Experimental data of several laboratories.
# Numbered parts are unrelated; each lists some results of a single study. Several values in a cell are separate wells, animals, samples, runs or records.
# Chain of UniProt P07949 (whole entry, unmodified, looked up): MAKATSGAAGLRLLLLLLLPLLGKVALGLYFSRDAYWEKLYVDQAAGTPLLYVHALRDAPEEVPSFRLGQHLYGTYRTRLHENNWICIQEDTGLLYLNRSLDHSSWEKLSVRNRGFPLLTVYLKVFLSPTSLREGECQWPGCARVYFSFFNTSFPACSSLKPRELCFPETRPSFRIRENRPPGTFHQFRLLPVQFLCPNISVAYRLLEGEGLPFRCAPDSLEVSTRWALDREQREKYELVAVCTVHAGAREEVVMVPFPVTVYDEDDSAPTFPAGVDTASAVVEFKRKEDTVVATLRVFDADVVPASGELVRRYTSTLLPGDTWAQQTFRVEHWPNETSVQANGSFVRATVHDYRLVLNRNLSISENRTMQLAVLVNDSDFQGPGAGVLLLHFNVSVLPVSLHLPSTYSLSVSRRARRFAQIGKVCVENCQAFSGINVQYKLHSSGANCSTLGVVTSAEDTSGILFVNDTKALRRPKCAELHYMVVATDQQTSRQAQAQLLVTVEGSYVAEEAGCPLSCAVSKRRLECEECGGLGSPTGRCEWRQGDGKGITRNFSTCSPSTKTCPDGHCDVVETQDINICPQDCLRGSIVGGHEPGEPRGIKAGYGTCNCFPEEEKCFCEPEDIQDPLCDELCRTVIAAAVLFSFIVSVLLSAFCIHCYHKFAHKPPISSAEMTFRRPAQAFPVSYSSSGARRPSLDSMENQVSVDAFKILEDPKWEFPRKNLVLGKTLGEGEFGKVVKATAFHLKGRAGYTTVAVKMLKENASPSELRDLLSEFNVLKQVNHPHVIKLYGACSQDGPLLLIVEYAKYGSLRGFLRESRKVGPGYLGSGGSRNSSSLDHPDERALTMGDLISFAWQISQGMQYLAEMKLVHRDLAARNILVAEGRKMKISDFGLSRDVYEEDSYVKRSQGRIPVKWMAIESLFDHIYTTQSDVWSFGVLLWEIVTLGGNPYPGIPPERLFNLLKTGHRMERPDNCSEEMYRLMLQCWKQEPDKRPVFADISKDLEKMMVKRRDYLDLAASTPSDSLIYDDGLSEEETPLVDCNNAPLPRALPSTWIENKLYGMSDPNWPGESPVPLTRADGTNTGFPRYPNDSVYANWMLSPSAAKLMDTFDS
# Chain of UniProt O15530 (whole entry, looked up): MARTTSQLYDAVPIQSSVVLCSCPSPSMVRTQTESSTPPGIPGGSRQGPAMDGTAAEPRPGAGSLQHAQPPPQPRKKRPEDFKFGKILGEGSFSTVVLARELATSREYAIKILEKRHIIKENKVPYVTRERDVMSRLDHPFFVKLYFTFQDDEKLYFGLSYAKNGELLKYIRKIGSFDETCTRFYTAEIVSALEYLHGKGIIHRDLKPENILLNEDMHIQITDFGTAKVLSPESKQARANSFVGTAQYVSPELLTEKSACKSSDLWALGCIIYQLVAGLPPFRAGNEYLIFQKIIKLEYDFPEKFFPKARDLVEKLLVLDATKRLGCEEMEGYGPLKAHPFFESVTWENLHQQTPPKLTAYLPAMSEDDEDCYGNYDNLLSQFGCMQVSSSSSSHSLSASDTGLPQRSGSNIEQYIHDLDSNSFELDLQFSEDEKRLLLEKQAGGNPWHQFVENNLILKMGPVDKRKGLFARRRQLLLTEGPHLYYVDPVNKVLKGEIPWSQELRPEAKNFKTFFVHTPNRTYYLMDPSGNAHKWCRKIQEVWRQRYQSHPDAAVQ
# Chain of UniProt P22607 (whole entry, looked up): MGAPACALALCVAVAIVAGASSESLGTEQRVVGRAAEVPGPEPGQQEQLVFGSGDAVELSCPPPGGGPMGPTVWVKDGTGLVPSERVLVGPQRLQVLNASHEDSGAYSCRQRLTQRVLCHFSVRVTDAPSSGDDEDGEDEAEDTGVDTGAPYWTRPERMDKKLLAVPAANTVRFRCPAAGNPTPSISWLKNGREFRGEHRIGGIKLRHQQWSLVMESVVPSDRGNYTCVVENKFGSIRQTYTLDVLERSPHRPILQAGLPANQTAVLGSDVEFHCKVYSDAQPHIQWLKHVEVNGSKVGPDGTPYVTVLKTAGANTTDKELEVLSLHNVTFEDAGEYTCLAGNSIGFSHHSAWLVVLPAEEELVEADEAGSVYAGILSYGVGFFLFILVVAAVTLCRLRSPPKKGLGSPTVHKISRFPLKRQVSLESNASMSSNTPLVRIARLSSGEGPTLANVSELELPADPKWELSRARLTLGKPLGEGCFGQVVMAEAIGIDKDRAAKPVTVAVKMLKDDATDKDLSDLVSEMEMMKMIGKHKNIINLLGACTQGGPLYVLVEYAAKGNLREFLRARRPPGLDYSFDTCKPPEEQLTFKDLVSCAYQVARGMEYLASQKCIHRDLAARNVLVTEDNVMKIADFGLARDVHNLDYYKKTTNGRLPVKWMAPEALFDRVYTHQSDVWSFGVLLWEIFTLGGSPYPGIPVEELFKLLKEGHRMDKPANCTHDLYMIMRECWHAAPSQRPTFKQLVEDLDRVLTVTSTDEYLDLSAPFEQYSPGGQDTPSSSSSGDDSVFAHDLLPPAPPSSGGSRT
# Chain of UniProt Q15569 (whole entry, looked up): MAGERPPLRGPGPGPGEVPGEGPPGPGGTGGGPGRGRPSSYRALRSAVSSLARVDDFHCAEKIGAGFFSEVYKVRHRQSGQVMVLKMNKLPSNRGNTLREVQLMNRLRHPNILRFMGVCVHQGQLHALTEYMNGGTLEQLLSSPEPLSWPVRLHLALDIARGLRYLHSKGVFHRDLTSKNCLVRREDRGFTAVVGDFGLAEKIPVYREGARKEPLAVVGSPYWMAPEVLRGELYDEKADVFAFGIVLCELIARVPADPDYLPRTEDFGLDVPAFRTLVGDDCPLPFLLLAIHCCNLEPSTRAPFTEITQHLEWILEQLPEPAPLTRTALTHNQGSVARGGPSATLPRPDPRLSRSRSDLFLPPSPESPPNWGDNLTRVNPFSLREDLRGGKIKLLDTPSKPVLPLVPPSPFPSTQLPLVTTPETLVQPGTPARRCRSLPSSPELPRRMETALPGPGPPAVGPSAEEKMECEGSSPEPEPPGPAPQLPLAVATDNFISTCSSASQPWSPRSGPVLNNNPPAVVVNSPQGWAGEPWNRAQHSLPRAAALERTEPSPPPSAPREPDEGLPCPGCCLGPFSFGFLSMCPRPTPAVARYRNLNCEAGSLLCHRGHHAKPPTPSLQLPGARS
# Chain of UniProt O75914 (whole entry, looked up): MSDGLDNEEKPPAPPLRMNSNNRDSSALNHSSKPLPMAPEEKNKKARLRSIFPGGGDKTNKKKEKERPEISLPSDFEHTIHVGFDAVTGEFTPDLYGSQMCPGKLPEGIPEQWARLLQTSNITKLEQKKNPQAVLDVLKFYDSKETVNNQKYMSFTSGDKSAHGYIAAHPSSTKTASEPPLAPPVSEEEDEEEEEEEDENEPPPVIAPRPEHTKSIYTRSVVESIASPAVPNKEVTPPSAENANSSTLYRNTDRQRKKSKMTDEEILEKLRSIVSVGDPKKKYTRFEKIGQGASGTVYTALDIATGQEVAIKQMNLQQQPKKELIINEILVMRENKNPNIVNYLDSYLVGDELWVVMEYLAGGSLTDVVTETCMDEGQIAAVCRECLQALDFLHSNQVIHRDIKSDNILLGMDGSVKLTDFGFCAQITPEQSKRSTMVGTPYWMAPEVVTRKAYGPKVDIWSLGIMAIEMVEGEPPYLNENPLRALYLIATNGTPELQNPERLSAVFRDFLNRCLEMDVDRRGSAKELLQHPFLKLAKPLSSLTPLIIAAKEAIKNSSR

# Set 1
# Compound: O=C(NCCCC1CCCCC1)c1ccc(CNC(=O)c2cnn(-c3ccccc3)c2C(F)(F)F)cc1
# Effect on: cell-free assay
# Technique: competition with immobilised ligand
# Concentration: 0.1 µM
target,remaining binding [%]
"FLT3 (Homo sapiens, UniProt P36888)",87
"TESK1 (Homo sapiens, UniProt Q15569)",100
"RIPK1 (Homo sapiens, UniProt Q13546)",89
"PDPK1 (Homo sapiens, UniProt O15530)",100
"FGFR3 (Homo sapiens, UniProt P22607)",100
"RIOK3 (Homo sapiens, UniProt O14730)",100
"TLK2 (Homo sapiens, UniProt Q86UE8)",100
"PAK3 (Homo sapiens, UniProt O75914)",100
"KIT (Homo sapiens, UniProt P10721, A829P)",100
"RET (Homo sapiens, UniProt P07949, M918T)",100
"FGR (Homo sapiens, UniProt P09769)",95
"PIKFYVE (Homo sapiens, UniProt Q9Y2I7)",65
"MAP3K4 (Homo sapiens, UniProt Q9Y6R4)",100

# Set 2
# Target: Calcium/calmodulin-dependent protein kinase type 1D (CAMK1D, Homo sapiens, UniProt Q8IU85)
# Chain of UniProt Q8IU85 (whole entry, looked up): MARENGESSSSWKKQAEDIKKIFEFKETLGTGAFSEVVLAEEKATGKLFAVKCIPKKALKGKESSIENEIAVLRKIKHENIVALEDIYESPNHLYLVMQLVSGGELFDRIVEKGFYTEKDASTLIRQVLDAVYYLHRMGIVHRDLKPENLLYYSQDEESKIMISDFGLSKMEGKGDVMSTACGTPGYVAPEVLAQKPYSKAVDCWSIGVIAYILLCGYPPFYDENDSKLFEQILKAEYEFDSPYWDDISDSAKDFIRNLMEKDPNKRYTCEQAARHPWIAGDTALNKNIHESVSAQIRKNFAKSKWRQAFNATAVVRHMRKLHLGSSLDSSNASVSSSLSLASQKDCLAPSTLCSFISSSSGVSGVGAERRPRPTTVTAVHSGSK
# Effect on: enzyme activity
# Action: inhibitor
# Concentration: 0.5 µM
# Baseline: control
Compound,remaining activity
CN([C@@H](Cc1ccc(OS(=O)(=O)c2cccc3cnccc23)cc1)C(=O)N1CCN(c2ccccc2)CC1)S(=O)(=O)c1cccc2cnccc12,101%
CN(C)C[C@H]1CCn2c(c(C3=C(c4cn(C)c5ccccc45)C(=O)NC3=O)c3ccccc32)C1,101%
Cc1cn(-c2cc(NC(=O)c3ccc(C)c(Nc4nccc(-c5cccnc5)n4)c3)cc(C(F)(F)F)c2)cn1,87.7%
O=C1C(Cl)=C(N2C(=O)CCC2=O)C(=O)c2ccccc21,102%
Ic1cccc(CSc2nnc(-c3ccncc3)o2)c1,101%
COc1cc2ncnc(Nc3cccc(Cl)c3)c2cc1OC,96.6%
Cc1cc2ncc(-c3ccccc3)nc2cc1C,100%
CCOc1nc(NC(=O)Cc2cc(OC)ccc2OC)cc(N)c1C#N,108%
c1ccc(-c2cnc(Nc3ccc(OCCN4CCCC4)cc3)s2)cc1,101%
COc1cc2c(cc1OC)-c1[nH]nc(Nc3cccc(F)c3)c1C2,89.8%
N#Cc1c(NC(=O)c2cccc3ccccc23)sc2c1CCCC2,120%
c1ccc(-c2[nH]ncc2-c2ccnc3ccccc23)nc1,100%
COc1cc2ncnc(Nc3ccc(O)c(Br)c3)c2cc1OC,98.6%
Nc1cccc(-c2cc3c(Oc4cccc(O)c4)ncnc3[nH]2)c1,97.7%
CCN(CC)C(=O)c1ccc(Nc2nc(OCC3CCCCC3)c3[nH]cnc3n2)cc1,101%
Cn1nc2c3c(cccc31)C(=O)c1ccccc1-2,70.3%
Cc1nc2cc3nc(-c4cccs4)cnc3cc2n1C,107%
O=C(Nc1cccc(Nc2nccc(Nc3cccc(C(F)(F)F)c3)n2)c1)C1CC1,100%
CCN(CC)CCNC(=O)c1c(C)[nH]c(/C=C2\C(=O)Nc3ccc(Cl)cc32)c1C,60.2%
N#C/C(=C\c1ccc(O)c(O)c1)C(=O)NCc1ccccc1,96.4%

# Set 3
# Cell line: mouse MPNST tumor cells
# Technique: high-content nuclear imaging
# Refers to: cell number
# Concentration: 10 µM
# Time: 12 h
# Notes: mean of 2 replicates
# Baseline: plate mean
# Direction: higher = more cells
Structure (SMILES),nuclei count [z-score]
O=C1OC(OC(=O)c2cccnc2Nc2cccc(C(F)(F)F)c2)c2ccccc21 (centres unmarked),0.507
CN(C)CCC(c1ccc(Cl)cc1)c1ccccn1 (centres unmarked),2.88
CCC(C)C1OC2(CCC1C)CC1CC(CC=C(C)C(OC3CC(OC)C(OC4CC(OC)C(O)C(C)O4)C(C)O3)C(C)C=CC=C3COC4C(O)C(C)=CC(C(=O)O1)C34O)O2 (centres unmarked),-5.58
O=C(NCc1ccc(F)cc1)N1CCN2C(=O)OC(c3ccccc3)(c3ccccc3)C2C1 (centres unmarked),2.31
CC1=C(/C=C/C(C)=C/C=C/C(C)=C\C(=O)O)C(C)(C)CCC1,-1.83
CC(=O)OCC(CCn1cnc2cnc(N)nc21)COC(C)=O,1.14
O=C1Nc2ccccc2C12OCC1(CO2)COC2(OC1)C(=O)Nc1ccccc12 (centres unmarked),1.94

# Other studies, line by line
Structure (SMILES),target,assay,test system,conditions,how to read,endpoint,result
C=C(F)C(=O)N1CCN(c2nc(OC[C@@H]3CCCN3C)nc3c2CCN(c2cccc4cccc(Cl)c24)C3)C[C@@H]1CC#N,"GTPase HRas (HRAS, Homo sapiens, UniProt P01112, G12V)","binding, NanoBRET",HEK293 (live),0.3468 µM,lower = stronger binding,target engagement,107% and 104% and 106% and 111%

# For quick reference, copied from above (set 1):
target,remaining binding [%]
"FGFR3 (Homo sapiens, UniProt P22607)",100
"RIOK3 (Homo sapiens, UniProt O14730)",100
